Assay results gathered from unrelated publications.
Protocols differ between the studies behind these lines. Numbers after ± are the reported error.
Cell line: U-87 MG

Cc1nc(Nc2ncc(C(=O)Nc3c(C)cccc3Cl)s2)cc(N2CCN(CCO)CC2)n1
cell invasion (fibronectin Boyden chamber; 100 nM, 6 h; baseline: vehicle): 15.4 ± 5.7%

CC(=O)c1c(C)c2cnc(Nc3ccc(N4CCNCC4)cn3)nc2n(C2CCCC2)c1=O
IC50 (cell growth or viability; 6 days): 0.253 µM

ACGLSGLCVAK
live cells (annexin V-PI flow cytometry; peptide; 10 µM): 98.2%

O=NN(CCCl)C(=O)NCCCl
viability (cell growth or viability, WST-1; 500 µM, 24 h): 17.7%

Clc1ccc(C2(c3ccc(-c4cn[nH]c4)cc3)CCNCC2)cc1
IC50 (electrochemiluminescence immunoassay, refers to: p70S6K phospho-Thr421/Ser424; 1 h): > 20 µM

CN1CCN(c2ccc(Nc3ncc4cc(C#N)c(=O)n(C5CCCC5)c4n3)cc2)CC1
IC50 (cell growth or viability, SRB; 72 h): 3.4 µM

COc1cccc2c1C(=O)c1c(O)c3c(c(O)c1C2=O)C[C@@](O)(C(=O)CO)C[C@@H]3O[C@H]1C[C@H](N)[C@H](O)[C@H](C)O1
late apoptotic cells (annexin V-PI flow cytometry; 10 µM): 52.7%

CC[C@@]1(O)C(=O)OCc2c1cc1n(c2=O)Cc2cc3c(CN(C)C)c(O)ccc3nc2-1
IC50 (cell growth; 4 h exposure, read 4 days later): 15.1 µM
